{"data": "Experimental data of several laboratories", "note": "Protocols differ between the studies behind these lines. ± gives the spread as reported."}
{"Compound": "O=C(N/N=C/c1ccc2c(ccc[n+]2Cc2ccccc2)c1)c1cncc(C(=O)N/N=C/c2ccc3c(ccc[n+]3Cc3ccccc3)c2)n1", "target or system": "22CTA telomeric G4-DNA antiparallel", "assay": "FRET melting", "setting": "1 µM, K10 buffer, DNA 0.2 µM, with: ds26 10 µM", "measurement": "ΔTm", "value": "16.4 ± 0.4 °C"}
{"Compound": "COC1OC(C)C(OC2OC(C)C(OS(=O)(=O)O)C(OS(=O)(=O)O)C2OS(=O)(=O)O)C(OS(=O)(=O)O)C1OS(=O)(=O)O (stereo not shown)", "system": "human plasma", "setting": "128 µg/mL", "measurement": "activated partial thromboplastin time", "value": "42.5 ± 0.9 s"}
{"Compound": "C[n+]1cc(/C=N/NC(=O)C(=O)N/N=C/c2cc3ccccc3[n+](C)c2)cc2ccccc21", "target or system": "22CTA telomeric G4-DNA antiparallel", "assay": "FRET melting", "setting": "1 µM, K10 buffer, DNA 0.2 µM", "measurement": "ΔTm", "value": "3.5 ± 1.8 °C"}
{"Compound": "Nc1ncc(-c2cc(-c3cnn(CC(F)(F)F)c3)ncc2F)nc1C(=O)NC1CNCC(F)C1 (stereo not shown)", "target or system": "CLK3", "assay": "KINOMEscan", "setting": "1 µM", "scale": "reference: DMSO control", "measurement": "remaining binding", "value": "37%"}
{"Compound": "Cc1ncsc1-c1ccc(C(C)NC(=O)C2CC(O)CN2C(=O)C(NC(=O)CCCCCCCCCCN2CCCC(Nc3ncc(Cl)c(Nc4ccccc4S(=O)(=O)C(C)C)n3)C2)C(C)(C)C)cc1 (stereo not shown)", "target or system": "22Rv1", "assay": "RNA-seq, refers to: SPTLC3 mRNA", "setting": "concentration not given", "scale": "reference: DMSO", "measurement": "log2 fold change", "value": -2.12}
{"Compound": "C[n+]1cc(/C=N/NC(=O)c2cc(C(=O)N/N=C/c3cc4ccccc4[n+](C)c3)ncn2)cc2ccccc21", "target or system": "22CTA telomeric G4-DNA antiparallel", "assay": "FRET melting", "setting": "1 µM, K10 buffer, DNA 0.2 µM", "measurement": "ΔTm", "value": "5.6 ± 0.8 °C"}
{"Compound": "C=C(NC(=O)c1csc(-c2nc3c(cc2O)-c2nc(cs2)C(=O)NC(C(C)O)C(=O)NC(=C(C)OC)c2nc(cs2)C(=O)NC2c4nc(cs4)C(=O)NC(COC(=O)c4c5c6c(cccc6n4O)COC(=O)C(OC4CC(C)(O)C(N(C)C)C(C)O4)C2OC5)c2nc-3cs2)n1)C(N)=O (stereo not shown)", "target or system": "Streptococcus pyogenes", "system": "10 isolates", "setting": "serum 50%", "measurement": "MIC50", "value": "0.0156 µg/mL"}
{"Compound": "O=c1c(Oc2ccccc2)c(C(F)(F)F)oc2c(O)c(O)ccc12", "target or system": "ROC1-CUL1 E3 subcomplex", "assay": "Cdc34-ubiquitin discharge", "setting": "3 µM", "scale": "reference: input", "measurement": "Cdc34b-ubiquitin remaining", "value": "2.1%"}
{"Compound": "C[n+]1ccc(/C=N/NC(=O)c2cncc(C(=O)N/N=C/c3cc[n+](C)cc3)n2)cc1", "target or system": "22CTA telomeric G4-DNA antiparallel", "assay": "FRET melting", "setting": "1 µM, K10 buffer, DNA 0.2 µM, with: ds26 10 µM", "measurement": "ΔTm", "value": "2.9 ± 0.3 °C"}
{"Compound": "COCC1CN(C2CCN(c3cc(OC)c(Nc4ncc(Br)c(Nc5ccc6c(c5P(C)(C)=O)OCCO6)n4)cc3C)CC2)C1", "assay": "RECIST 1.1", "system": "advanced EGFR-mutant NSCLC patients", "setting": "90 mg once daily", "measurement": "disease control rate", "value": "0%"}
{"Compound": "C=CC(=O)N1[C@@H](c2ccc3c(c2)OCO3)c2[nH]c3ccccc3c2C[C@H]1C(=O)N1CCN(C)CC1", "target or system": "human cyclin E1 wild type-3xFLAG:CDK2", "assay": "co-IP with TMT proteomics, refers to: HNRNPA2B1", "setting": "concentration not given, P22626", "scale": "reference: wild type DMSO", "measurement": "relative co-enrichment", "value": "95%"}
{"Compound": "C[n+]1cc(/C=N/NC(=O)c2cncc(C(=O)N/N=C/c3cc4ccccc4[n+](C)c3)n2)cc2ccccc21", "target or system": "22CTA telomeric G4-DNA antiparallel", "assay": "FRET melting", "setting": "1 µM, K10 buffer, DNA 0.2 µM, with: ds26 10 µM", "measurement": "ΔTm", "value": "8.2 ± 0.2 °C"}
{"Compound": "COC1CN([C@H]2CC[C@H]([C@@]3(C)Oc4c(Cl)cc(C(=O)NCc5c(SC)cc(C)[nH]c5=O)c(C)c4O3)CC2)C1", "assay": "RNA-seq, refers to: SCARF2 mouse homolog", "system": "mouse, HT-1376 xenograft, whole blood", "setting": "dose not given", "scale": "reference: vehicle", "measurement": "log2 fold change", "value": 0.447}
{"Compound": "CO[C@@H]1[C@@H](OC(N)=O)[C@@H](O)[C@H](Oc2ccc3c(O)c(NC(=O)c4ccc(O)c(CC=C(C)C)c4)c(=O)oc3c2C)OC1(C)C", "target or system": "HCT-116 BRCA2-/-", "setting": "75 µM, replicate 2", "measurement": "colony count", "value": 29}
{"Compound": "C=CC(=O)Nc1cccc(Cn2ncc3cnc(Nc4cnn(CCOC)c4)nc32)c1", "target or system": "EPHB3 human", "assay": "binding, KINOMEscan", "setting": "100 nM", "scale": "lower = stronger binding", "measurement": "percent of control", "value": "100%"}
{"Compound": "COC1OC(C)C(O)C(OC2OC(C)C(O)C(OC3OC(C)C(O)C(OC4OC(C)C(O)C(OC5OC(C)C(O)C(OC6OC(C)C(O)C(OS(=O)(=O)O)C6OS(=O)(=O)O)C5OS(=O)(=O)O)C4OS(=O)(=O)O)C3OS(=O)(=O)O)C2OS(=O)(=O)O)C1OS(=O)(=O)O (stereo not shown)", "system": "human plasma", "setting": "128 µg/mL", "measurement": "activated partial thromboplastin time", "value": "37.4 ± 0.3 s"}
{"Compound": "C[n+]1cccc2cc(/C=N/NC(=O)c3cccc(C(=O)N/N=C/c4ccc5c(ccc[n+]5C)c4)c3)ccc21", "target or system": "22CTA telomeric G4-DNA antiparallel", "assay": "FRET melting", "setting": "1 µM, K10 buffer, DNA 0.2 µM", "measurement": "ΔTm", "value": "5.4 ± 0.3 °C"}
{"Compound": "c1ccc(-c2n[nH]cc2-c2ccnc3ccccc23)nc1", "target or system": "AKL1 (Candida albicans)", "assay": "kinase binding, MIB/MS competition", "system": "Candida albicans lysate", "setting": "1 µM", "scale": "reference: DMSO", "measurement": "log2 fold change", "value": 0.04}
{"Compound": "COC1OC(C)C(OC2OC(C)C(OS(=O)(=O)O)C(OS(=O)(=O)O)C2O)C(OS(=O)(=O)O)C1O (stereo not shown)", "system": "human plasma", "setting": "128 µg/mL", "measurement": "activated partial thromboplastin time", "value": "32.3 ± 0.4 s"}
